Experimental data of several laboratories.
A part holds a random share of what one study measured.

Sample 1
Target: Phosphate system positive regulatory protein PHO4, full length, GST-tagged (PHO4, Saccharomyces cerevisiae, UniProt P07270, residues 1-312)
Technique: competition protein-binding microarray
Molecule type: double-stranded DNA, one strand shown
Sample: in vitro
Concentration: 2 µM
Setting: whole 60-bp probe, lowest competitor level
Together with: Cbf1 competitor, 0.05 µM
Reading: higher = stronger binding
Quantity: fluorescence intensity
Constant ends, left off below: … GTCTTGATTCGCTTGACGCTGCTG
Residues (chain): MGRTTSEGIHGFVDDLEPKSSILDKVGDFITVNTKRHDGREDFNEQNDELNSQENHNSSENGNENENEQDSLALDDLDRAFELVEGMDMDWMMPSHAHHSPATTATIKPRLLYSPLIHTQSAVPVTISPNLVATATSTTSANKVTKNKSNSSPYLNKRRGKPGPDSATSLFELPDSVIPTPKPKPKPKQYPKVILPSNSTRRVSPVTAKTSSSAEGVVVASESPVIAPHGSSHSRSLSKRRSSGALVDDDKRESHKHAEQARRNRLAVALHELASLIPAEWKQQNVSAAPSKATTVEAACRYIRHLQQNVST
ACAGTCTTTCCGTTACACGCACACACTTGTTTATTA: 8340 a.u.
TCACAACAGATATCCCACATGAGGCAGCGCTACCCA: 7200 a.u.
GGGGACACCAGTTATCATGTTGTCAACCAAAGACTT: 4150 a.u.
AGCCAGCATTGTTGTCATGCGAGATGTCTAAGAAAA: 4720 a.u.
GATGGTATACGCCGTCACGTCTTTTACAATGAAGTG: 5680 a.u.
AATCTTGAATGGAGTGACCTGAGACAAGGAGAGGCA: 2970 a.u.
GATGAGTGAGGAGAAAACGTGCAAATAATAAAATTA: 15100 a.u.
CTAACGAAGGTTTGGAGGGTGGGTGACAAGCCAAGT: 4370 a.u.
AAATTACTAAGTTGTTCGGTGGGTGACGCCGTATGA: 4320 a.u.
CCTCTTTTAATATGTAACGTGTCGGTTCTATTTATC: 10500 a.u.
GTTATAAAAGAATGTCCCGTGGTGAAAATGGATGAG: 8740 a.u.
CTTTCCCGATCTTGAGAAGTGGGTGTAGCACATTTG: 4400 a.u.
CTTCTGTAAATTTGCTGTGTGGGTGGACGCGCCCCG: 4850 a.u.
GATTGATATATCGGCCACGTTTGAGGACCAAGTTGC: 10800 a.u.
AAAGCGGTAATTTGTCACTGGACTTCACATATCTAT: 2710 a.u.
AAATTACTAAGTTGCAGAGTGGGTGACGCCGTATGA: 3790 a.u.
TGCGCAACAACTTTTCACGTGCATTTATGTCTAGAA: 14800 a.u.
GAGACCACATATTCACACGTGATGGATAGTCCCGTT: 15300 a.u.
CATACCCAACCTTGCTCGGTGGGTGAAGATATTTGT: 3870 a.u.

Sample 2
Target: Sal-like protein 4, full length isoform B (SALL4, Homo sapiens, UniProt Q9UJQ4-2, residues 1-616)
Technique: universal PBM
Molecule type: double-stranded DNA, one strand shown
Sample: in vitro
Concentration: not given
Setting: 8-mer, flanks averaged, mean of replicates
Reading: higher = stronger binding
Quantity: E-score
Construct (chain): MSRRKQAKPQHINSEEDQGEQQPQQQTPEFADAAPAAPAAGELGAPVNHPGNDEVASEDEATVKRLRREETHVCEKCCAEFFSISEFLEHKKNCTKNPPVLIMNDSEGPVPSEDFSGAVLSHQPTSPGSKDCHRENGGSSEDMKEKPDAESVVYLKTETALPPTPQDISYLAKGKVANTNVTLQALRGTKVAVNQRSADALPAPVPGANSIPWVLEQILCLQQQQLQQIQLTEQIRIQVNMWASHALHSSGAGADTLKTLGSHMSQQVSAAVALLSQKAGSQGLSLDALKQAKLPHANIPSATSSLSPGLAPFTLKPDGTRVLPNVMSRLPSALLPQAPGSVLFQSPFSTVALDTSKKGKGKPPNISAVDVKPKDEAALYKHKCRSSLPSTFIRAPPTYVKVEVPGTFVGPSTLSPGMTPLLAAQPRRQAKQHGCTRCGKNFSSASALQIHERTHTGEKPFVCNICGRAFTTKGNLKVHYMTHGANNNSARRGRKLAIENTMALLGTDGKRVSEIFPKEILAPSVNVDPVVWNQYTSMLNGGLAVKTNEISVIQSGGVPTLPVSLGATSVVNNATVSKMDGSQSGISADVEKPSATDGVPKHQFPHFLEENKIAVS
AACATTTC: 0.198
GAACCCAA: -0.0702
AGGACAGC: -0.214
CAAATGTA: 0.306
TATGCTCA: 0.106
CTACATAA: 0.149
GAGGAGGC: -0.349
AAGGGATT: 0.0409
CAAAGATG: 0.0526
CTTTCGGC: -0.18
AGGGAACG: -0.178
GTGGCATA: 0.0566
GTGAGAGA: -0.0423
ATGGATAA: 0.264
AAAGGATG: 0.152
CCGCGGGC: -0.383

Sample 3
Target: Interferon regulatory factor 5, full length, phosphomimetic (IRF5, Homo sapiens, UniProt Q13568-2, residues 1-514, S451D/S453D/S456D/S462D)
Technique: protein-binding microarray
Molecule type: double-stranded DNA, one strand shown
Sample: in vitro
Concentration: 940 nM top
Setting: 60-bp whole probe
Together with: salmon DNA 0.4 mg/ml
Relative to: random background probes
Reading: higher = stronger binding
Quantity: fitted relative affinity
Constant ends, left off below: GCCTAGCAC … GTCTTGATTCGCTTGACGCTGCTG
GACGATTCCAGCTTCGAGACGTGCTAG: -0.177 z-score
TTACATATGTTTTTCATTTTGTGCTAG: 0.946 z-score
GACGATTTCGGGTTCCGAGACGTGCTA: 0.541 z-score
GACCAGGGGCCACAGCCTCAGTGCTAG: -0.872 z-score
GACGGACTGCTTATCATGACGTGCTAG: -0.202 z-score
TTAAATTTCAGTCTCGATTAGTGCTAG: 4.38 z-score
TCATGGATGTGTTTTAAACTGTGCTAG: -0.165 z-score
GACGGTCACCTTTTCCTGACGTGCTAG: 0.471 z-score
TTAGAACTGGGATTTCGATTAGTGCTA: 0.744 z-score
TTCGGTTTCCTTCTCCTTTAGTGCTAG: 2.38 z-score
TTAGATCTCAGTCTCGGTTAGTGCTAG: 3.86 z-score
CTCAGTTTATTTATTTTTACGTGCTAG: 0.784 z-score
TTCGGACTGCTTCTCCTTTAGTGCTAG: 0.165 z-score
TTAGATATCGGATTTCGATTAGTGCTA: 0.53 z-score
TTAGGTATCGGTATGGGTTAGTGCTAG: 10.6 z-score
AACACTCTTCTTTTGCTAATGTGCTAG: 1.57 z-score
TTAGGACTGGGACTGGGTTCGTGCTAG: -0.475 z-score
GTAGAACTGGGGTATCGATTAGTGCTA: 2.66 z-score

Sample 4
Target: RNA binding protein fox-1 homolog 2, RRM domain, GST-SBP tag (RBFOX2, Homo sapiens, UniProt O43251-10, residues 100-194)
Technique: RNA Bind-n-Seq
Molecule type: RNA
Sample: in vitro
Concentration: 365 nM
Setting: natural RNA segment, single round, ends assumed
Relative to: no-protein control
Reading: higher = stronger binding
Quantity: RBNS enrichment (R)
Constant ends, left off below: GGGAGUUCUACAGUCCGACGAUC … UGGAAUUCUCGGGUGCCAA
Construct (chain): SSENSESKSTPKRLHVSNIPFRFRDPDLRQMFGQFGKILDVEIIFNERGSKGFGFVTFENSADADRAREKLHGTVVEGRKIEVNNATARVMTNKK
CUUGCUCAUGUCUACUCCGGUUUUCUCUACCACAUCCUUAGAGCCAUCACCUGGCACGCAGGCGCCUUACAUUCUACGGUAGAACGUGGGGUACUGUGUGUGCACAUAGA: 0.266
UGUAGUUUUAACCAAAAAAGUGCCCUUUUUGUCACUGGAUUCUCCUAGCAUUCAUGAUUUUUUUUUCAUACAAUGAAUUAAAAUUGCUAAAAUCAUGGACUGGCUUUCUG: 0.345
CCUUCCUCCGCCAUCUGACUUCUCUAAAGCCAUCUCUCUGGAGGCUGAGGAAGCUGUGGUAACCAUUUCCCCACUCAUUCUGAGAGCCUUCUGUAAGCACUGACCUGGGU: 0.381
AUACCCAAUAACAAAAUCUGCCGGUUUGUCACAGUGGCUCACCUCCCAGAACUCUGAGCAAAGGGACUGUGAUGCCAAACCAGACUUUGGUCCCUUCCUGAGCCCUGCUC: 0.278
GGCGGACAGGGUACUCACUGUGCCGACGUGAGCAGACACAGCCAGAGGCUCAAGUGCCCUUGCCGAGUGUCCCCACUGCUCUUGGGGAGGCCCCGGCACAGCCCUGCAGA: 0.306
UUGGAUCUCAUUAUCAGAAAUAUUAUUCAGCUCAAGAAAUCUGACCCCAUAUUGGAAAAUGAAUGUCCUUUAGUAUUCCUGAAGCUAAAGCUUGGGUGUCUCCUCCCAGC: 0.392
AGGCGCCAUGAAUGCGGUUUCUCUGUGUAGCUCUGAGAGUUCGUUUCAUAGAACACAACACUUGAGCAGAUGCAUCCAAGGAGGCGAGCAAAUGAAAAGGAAUCUAUUUA: 0.631
GAAUGUGGACCUCUGAGCAUCCACGCAGGAUGGCUCUCAGGUCCCAGUCACAGACGUCGCUUCCUGGGAUUCCAGCACGAUGCCUCCAUAGUUGAAAGACUACACAAAAA: 1.61
